Measured values gathered from unrelated publications.
Lines come from different studies, so protocols differ.
Organism: Pseudomonas aeruginosa

`CC(C)C[C@@H]1NC(=O)[C@@H](CC(C)C)NC(=O)[C@H](CCN)NC(=O)[C@@H](NC(=O)[C@H](CCN)NC(=O)[C@@H](NC(=O)CCOCCOCCOCCN=[N+]=[N-])[C@@H](C)O)CCNC(=O)[C@H]([C@@H](C)O)NC(=O)[C@H](CCN)NC(=O)[C@H](CCN)NC1=O` gave an MIC of 55 µM (broth microdilution; ATCC 27736, cation-adjusted Mueller-Hinton broth).
The MIC of `C=C1NC(=O)C2C[S+]([O-])CC3NC(=O)C(CSC(C)C(NC(=S)C(Cc4cnc[nH]4)NC(=O)c4csc(C(C)NC(C)=O)n4)C(=O)N[C@H](CC(C)C(=O)NC(=O)CC(C(=O)O)NC(=O)C(C)NC3=O)C(=O)N2)NC(=O)[C@@H]2CCCN2C(=O)[C@@H](CC(C)C)NC1=O` (stereo partly shown) is reported as > 32 µg/mL (bacterial growth; ATCC 27853).
For `CN[C@H](CC(C)C)C(=O)N[C@H]1C(=O)N[C@@H](CC(N)=O)C(=O)N[C@H]2C(=O)N[C@H]3C(=O)N[C@H](C(=O)N[C@H](C(=O)O)c4cc(O)cc(O)c4-c4cc3ccc4O)[C@H](O)c3ccc(c(Cl)c3)Oc3cc2cc(c3O[C@@H]2O[C@H](CO)[C@@H](O)[C@H](O)[C@H]2O[C@H]2C[C@](C)(NCc3ccc(OCc4cn(CCCCC(=O)N[C@H](C(=O)N[C@@H](CCN)C(=O)N[C@H]5CCNC(=O)[C@H]([C@@H](C)O)NC(=O)[C@H](CCN)NC(=O)[C@H](CCN)NC(=O)[C@H](CC(C)C)NC(=O)[C@@H](CC(C)C)NC(=O)[C@H](CCN)NC5=O)[C@@H](C)O)nn4)c(OC)c3)[C@H](O)[C@H](C)O2)Oc2ccc(cc2Cl)[C@H]1O`, the MIC was 24 µM (broth microdilution; ATCC 10145, cation-adjusted Mueller-Hinton broth).
For `CC(=O)N[C@@H](CC(C)C)C(=O)N[C@H]1CSSC[C@@H](C(=O)N2CCC[C@H]2C(N)=O)NC(=O)[C@H]([C@@H](C)O)NC(=O)[C@H](C(C)C)NC(=O)[C@H]([C@@H](C)O)NC(=O)[C@H](CCCCN)NC(=O)[C@H](CC(C)C)NC(=O)[C@H](Cc2ccccc2)NC(=O)[C@H](Cc2ccc(O)cc2)NC(=O)[C@H](CC(C)C)NC(=O)[C@H](CCCCN)NC(=O)[C@H](Cc2ccccc2)NC(=O)[C@H](CCCNC(=N)N)NC(=O)[C@H](CCC(N)=O)NC(=O)[C@H](CC(C)C)NC(=O)[C@H](CCCCN)NC(=O)[C@@H]2CCCN2C(=O)[C@H](CCCCN)NC(=O)[C@H](C(C)C)NC(=O)[C@H](CC(N)=O)NC(=O)[C@H](Cc2ccc(O)cc2)NC(=O)[C@H]([C@@H](C)O)NC1=O`, the MIC was 20 to 40 µM (broth dilution; CGMCC strain; 24 h).
For `CC(=O)N[C@H](Cc1cccc(F)c1)C(=O)N[C@@H](CCN)C(=O)N[C@H](C(=O)N[C@@H](CCN)C(=O)N[C@H]1CCNC(=O)[C@H]([C@@H](C)O)NC(=O)[C@H](CCN)NC(=O)[C@H](CCN)NC(=O)[C@H](CC(C)C)NC(=O)[C@@H](Cc2ccccc2)NC(=O)[C@H](CCN)NC1=O)[C@@H](C)O`, the MIC was 0.25 to 0.5 µg/mL (broth microdilution; PAO1, colistin-susceptible).
For `CN[C@H](CC(C)C)C(=O)N[C@H]1C(=O)N[C@@H](CC(N)=O)C(=O)N[C@H]2C(=O)N[C@H]3C(=O)N[C@H](C(=O)N[C@H](C(=O)NCc4cn(CC(=O)N[C@H](C(=O)N[C@@H](CCN)C(=O)N[C@H]5CCNC(=O)[C@H]([C@@H](C)O)NC(=O)[C@H](CCN)NC(=O)[C@H](CCN)NC(=O)[C@H](CC(C)C)NC(=O)[C@@H](CC(C)C)NC(=O)[C@H](CCN)NC5=O)[C@@H](C)O)nn4)c4cc(O)cc(O)c4-c4cc3ccc4O)[C@H](O)c3ccc(c(Cl)c3)Oc3cc2cc(c3O[C@@H]2O[C@H](CO)[C@@H](O)[C@H](O)[C@H]2O[C@H]2C[C@](C)(N)[C@H](O)[C@H](C)O2)Oc2ccc(cc2Cl)[C@H]1O`, the MIC was 13 µM (broth microdilution; ATCC 27736, cation-adjusted Mueller-Hinton broth).
`CCCCCCCC(=O)N[C@@H](CCN)C(=O)N[C@H](C(=O)N[C@@H](CCN)C(=O)N[C@H]1CCNC(=O)[C@H]([C@@H](C)O)NC(=O)[C@H](CCN)NC(=O)[C@H](CCN)NC(=O)[C@H](CCC(C)C)NC(=O)[C@@H](Cc2ccccc2)NC(=O)[C@H](CCN)NC1=O)[C@@H](C)O` gave an MIC of 0.5 to 2 µg/mL (broth microdilution; colistin-resistant isolates).
The MIC of `CC(C)C[C@@H]1NC(=O)[C@H](CCCCN)NC(=O)C(N)CCC=CCCC(C(N)=O)NC(=O)[C@H](CCCCN)NC(=O)[C@H](CC(C)C)NC(=O)[C@H](CCCCN)NC(=O)C2CCC=CCCC(NC(=O)[C@H](CCCCN)NC1=O)C(=O)N[C@@H](CCCCN)C(=O)N1CCC[C@@H]1C(=O)NCC(=O)N[C@@H](CCCCN)C(=O)N2` (stereo partly shown) is reported as 32 µM (broth microdilution; ATCC 9027, Mueller-Hinton broth; 18 h, 37 °C).
For `CC[C@H](C)[C@H](NC(=O)[C@@H](CCCNC(=N)N)NC(=O)[C@H](CCCNC(=N)N)NC(=O)[C@H](CCC(=O)O)NC(=O)[C@H](Cc1c[nH]c2ccccc12)NC(=O)[C@H](CCCNC(=N)N)NC(=O)[C@@H]1CCCN1C(=O)[C@H](CCCNC(=N)N)NC(=O)[C@@H]1CCCN1C(=O)[C@H](CC(C)C)NC(=O)[C@H](Cc1ccc(O)cc1)NC(=O)[C@@H]1CCCN1C(=O)[C@@H]1CCCN1C(=O)[C@H](CCCCN)NC(=O)[C@H](CC(=O)O)NC(=O)[C@@H](N)C(C)C)C(=O)N[C@@H](Cc1ccc(O)cc1)C(=O)N[C@@H](CC(N)=O)C(=O)N[C@H](CCCNC(=N)N)C(N)=O`, the MIC was > 128 µg/mL (broth microdilution; DSM 1117; 18 h, 37 °C, 25% MHB2).
With `CCn1c(-c2ccc(F)cc2)c(-c2ccc(F)cc2)n(CC)c1=[Se]` the MIC was > 40 µM (broth microdilution; carbapenem-resistant BAA-2108; 24 h).
With `CC(C)C[C@@H]1NC(=O)[C@@H](CC(C)C)NC(=O)[C@H](CCN)NC(=O)[C@@H](NC(=O)[C@H](CCN)NC(=O)[C@@H](NC(=O)CN=[N+]=[N-])[C@@H](C)O)CCNC(=O)[C@H]([C@@H](C)O)NC(=O)[C@H](CCN)NC(=O)[C@H](CCN)NC1=O` the MIC was 32 µM (broth microdilution; ATCC 13883, cation-adjusted Mueller-Hinton broth).
For `CC(C)[C@H](NC(=O)[C@H](Cc1ccc(O)cc1)NC(=O)[C@H](CS)NC(=O)[C@@H](NC(=O)[C@H](CCCNC(=N)N)NC(=O)[C@H](Cc1ccccc1)NC(=O)[C@H](CS)NC(=O)[C@H](Cc1c[nH]c2ccccc12)NC(=O)[C@@H](N)CCCNC(=N)N)C(C)C)C(=O)NCC(=O)N[C@@H](Cc1ccccc1)C(=O)N[C@@H](CS)C(=O)N[C@@H](Cc1ccc(O)cc1)C(=O)N[C@@H](Cc1c[nH]c2ccccc12)C(=O)N[C@@H](CCCCN)C(=O)N[C@@H](CS)C(=O)N[C@@H](CCCNC(=N)N)C(=O)O`, the MIC was 17.6 µg/mL (broth microdilution; ATCC 27853, Mueller-Hinton broth; 16 to 20 h, 37 °C).
The MIC of `CN[C@H](CC(C)C)C(=O)N[C@H]1C(=O)N[C@@H](CC(N)=O)C(=O)N[C@H]2C(=O)N[C@H]3C(=O)N[C@H](C(=O)N[C@H](C(=O)O)c4cc(O)cc(O)c4-c4cc3ccc4O)[C@H](O)c3ccc(c(Cl)c3)Oc3cc2cc(c3O[C@@H]2O[C@H](CO)[C@@H](O)[C@H](O)[C@H]2O[C@H]2C[C@](C)(NCc3ccc(OCc4cn(CC(=O)N[C@H](C(=O)N[C@@H](CCN)C(=O)N[C@H]5CCNC(=O)[C@H]([C@@H](C)O)NC(=O)[C@H](CCN)NC(=O)[C@H](CCN)NC(=O)[C@H](CC(C)C)NC(=O)[C@@H](CC(C)C)NC(=O)[C@H](CCN)NC5=O)[C@@H](C)O)nn4)c(OC)c3)[C@H](O)[C@H](C)O2)Oc2ccc(cc2Cl)[C@H]1O` is reported as 3 µM (broth microdilution; ATCC 27736, cation-adjusted Mueller-Hinton broth).
`CC[C@H](C)[C@H](NC(=O)[C@H](CCCNC(=N)N)NC(=O)[C@@H](NC(=O)[C@@H](NC(=O)[C@H](CCCNC(=N)N)NC(=O)[C@H](CCCCN)NC(=O)[C@H](Cc1ccccc1)NC(=O)[C@H](CCCNC(=N)N)NC(=O)[C@H](CCCCN)NC(=O)[C@@H](NC(=O)[C@@H](N)CCCCN)[C@@H](C)CC)[C@@H](C)CC)C(C)C)C(=O)N[C@@H](CCCCN)C(=O)N[C@@H](Cc1ccccc1)C(=O)N[C@@H](CC(C)C)C(=O)N[C@@H](CCCNC(=N)N)C(=O)N[C@H](C(=O)N[C@H](C(=O)N[C@@H](CCCNC(=N)N)C(=O)N[C@@H](CCCNC(=N)N)C(N)=O)C(C)C)C(C)C` has an MIC of 3.75 µg/mL (broth microdilution; 10145).
`CC[C@H](C)[C@H](NC(=O)[C@@H](CCCNC(=N)N)NC(=O)[C@H](CCCNC(=N)N)NC(=O)[C@@H]1CCCN1C(=O)[C@@H]1CCCN1C(=O)[C@H](CCCNC(=N)N)NC(=O)[C@@H]1CCCN1C(=O)[C@H](CCCNC(=N)N)NC(=O)[C@@H]1CCCN1C(=O)[C@H](CC(C)C)NC(=O)[C@H](Cc1ccc(O)cc1)NC(=O)[C@H](Cc1c[nH]cn1)NC(=O)[C@@H]1CCCN1C(=O)[C@H](CCCCN)NC(=O)[C@H](CC(=O)O)NC(=O)[C@@H](N)C(C)C)C(=O)N[C@@H](Cc1ccc(O)cc1)C(=O)N[C@@H](CC(N)=O)C(=O)N[C@H](CCCNC(=N)N)C(N)=O` gave an MIC of 128 µg/mL (broth microdilution; DSM 1117; 18 h, 37 °C, 25% MHB2).
`CC[C@H](C)[C@H](NC(=O)[C@H](Cc1c[nH]c2ccccc12)NC(=O)[C@H](CCCNC(=N)N)NC(=O)[C@@H](N)CCCNC(=N)N)C(=O)N[C@@H](CCCNC(=N)N)C(=O)N[C@@H](Cc1c[nH]c2ccccc12)C(=O)N[C@H](C(=O)N[C@H](C(N)=O)[C@@H](C)O)[C@@H](C)CC` gave an MIC of 32 µg/mL (27023).

Some of these lines once more:
With `CCn1c(-c2ccc(F)cc2)c(-c2ccc(F)cc2)n(CC)c1=[Se]` the MIC was > 40 µM (broth microdilution; carbapenem-resistant BAA-2108; 24 h).
The MIC of `C=C1NC(=O)C2C[S+]([O-])CC3NC(=O)C(CSC(C)C(NC(=S)C(Cc4cnc[nH]4)NC(=O)c4csc(C(C)NC(C)=O)n4)C(=O)N[C@H](CC(C)C(=O)NC(=O)CC(C(=O)O)NC(=O)C(C)NC3=O)C(=O)N2)NC(=O)[C@@H]2CCCN2C(=O)[C@@H](CC(C)C)NC1=O` (stereo partly shown) is reported as > 32 µg/mL (bacterial growth; ATCC 27853).
